# Measured values of several laboratories.
# Protocols differ between the studies behind these lines.
# Cell line: HCC 2998
Compound,observed,method,tested at,time,relative to,endpoint,result
CC/C=C\C/C=C\C/C=C\C/C=C\C/C=C\C/C=C\CCC(=O)Nc1ccn(C2OC(CO)C(O)C2(F)F)c(=O)n1 (stereo not drawn),,NCI60 screen,,,,TGI,26700 nM
CC(=C(c1ccc(O)cc1)c1ccc(Cl)cc1)c1ccc(Cl)cc1,cell growth or viability,SRB,,,,GI50,750 nM
O=C1Nc2ccccc2/C1=N\Nc1nnc2n1N=C(c1ccc(Cl)cc1)CS2,cell growth or viability,SRB,10 µM,,,inhibition,13%
COc1cc(CNC(=O)C[C@H](C)CCC=C(C)C)ccc1OCc1cn(-c2ccc(Cl)cc2Cl)nn1,,SRB,10 µM,48 h,,growth percent,92.5%
COc1ccc2c(c1)/C(=N\Nc1nnc3n1N=C(c1ccccc1)CS3)C(=O)N2,cell growth or viability,SRB,10 µM,,,inhibition,12%
COc1cc(CNC(=O)C[C@H](C)CCC=C(C)C)ccc1OCc1cn(-c2cccc(Cl)c2)nn1,,SRB,10 µM,48 h,,growth percent,94.7%
CC(=O)OC[C@H]1O[C@@H](Sc2sc(C(=O)c3ccc(Br)cc3)c(N)c2-c2nc3ccccc3s2)[C@H](OC(C)=O)[C@@H](OC(C)=O)[C@@H]1OC(C)=O,,SRB,10 µM,48 h,untreated,growth,85%
CC(Cc1ccc(Cl)cc1)=C(c1ccc(Cl)cc1)c1ccc(OCCN(C)C)cc1,cell growth or viability,SRB,,,,GI50,2030 nM
COc1cc(CNC(=O)C[C@H](C)CCC=C(C)C)ccc1OCc1cn(-c2ccc(F)cc2)nn1,,SRB,10 µM,48 h,,growth percent,94.9%
